Assay results from different studies.
Protocols differ between the studies behind these lines. ± gives the spread as reported.
Spike glycoprotein: Spike glycoprotein (Severe acute respiratory syndrome coronavirus 2, UniProt P0DTC2)
tcdB glucosyltransferase domain: Toxin B, glucosyltransferase domain (tcdB, Clostridioides difficile, UniProt Q9EXR0)
Chain of UniProt Q9EXR0 (whole entry, looked up): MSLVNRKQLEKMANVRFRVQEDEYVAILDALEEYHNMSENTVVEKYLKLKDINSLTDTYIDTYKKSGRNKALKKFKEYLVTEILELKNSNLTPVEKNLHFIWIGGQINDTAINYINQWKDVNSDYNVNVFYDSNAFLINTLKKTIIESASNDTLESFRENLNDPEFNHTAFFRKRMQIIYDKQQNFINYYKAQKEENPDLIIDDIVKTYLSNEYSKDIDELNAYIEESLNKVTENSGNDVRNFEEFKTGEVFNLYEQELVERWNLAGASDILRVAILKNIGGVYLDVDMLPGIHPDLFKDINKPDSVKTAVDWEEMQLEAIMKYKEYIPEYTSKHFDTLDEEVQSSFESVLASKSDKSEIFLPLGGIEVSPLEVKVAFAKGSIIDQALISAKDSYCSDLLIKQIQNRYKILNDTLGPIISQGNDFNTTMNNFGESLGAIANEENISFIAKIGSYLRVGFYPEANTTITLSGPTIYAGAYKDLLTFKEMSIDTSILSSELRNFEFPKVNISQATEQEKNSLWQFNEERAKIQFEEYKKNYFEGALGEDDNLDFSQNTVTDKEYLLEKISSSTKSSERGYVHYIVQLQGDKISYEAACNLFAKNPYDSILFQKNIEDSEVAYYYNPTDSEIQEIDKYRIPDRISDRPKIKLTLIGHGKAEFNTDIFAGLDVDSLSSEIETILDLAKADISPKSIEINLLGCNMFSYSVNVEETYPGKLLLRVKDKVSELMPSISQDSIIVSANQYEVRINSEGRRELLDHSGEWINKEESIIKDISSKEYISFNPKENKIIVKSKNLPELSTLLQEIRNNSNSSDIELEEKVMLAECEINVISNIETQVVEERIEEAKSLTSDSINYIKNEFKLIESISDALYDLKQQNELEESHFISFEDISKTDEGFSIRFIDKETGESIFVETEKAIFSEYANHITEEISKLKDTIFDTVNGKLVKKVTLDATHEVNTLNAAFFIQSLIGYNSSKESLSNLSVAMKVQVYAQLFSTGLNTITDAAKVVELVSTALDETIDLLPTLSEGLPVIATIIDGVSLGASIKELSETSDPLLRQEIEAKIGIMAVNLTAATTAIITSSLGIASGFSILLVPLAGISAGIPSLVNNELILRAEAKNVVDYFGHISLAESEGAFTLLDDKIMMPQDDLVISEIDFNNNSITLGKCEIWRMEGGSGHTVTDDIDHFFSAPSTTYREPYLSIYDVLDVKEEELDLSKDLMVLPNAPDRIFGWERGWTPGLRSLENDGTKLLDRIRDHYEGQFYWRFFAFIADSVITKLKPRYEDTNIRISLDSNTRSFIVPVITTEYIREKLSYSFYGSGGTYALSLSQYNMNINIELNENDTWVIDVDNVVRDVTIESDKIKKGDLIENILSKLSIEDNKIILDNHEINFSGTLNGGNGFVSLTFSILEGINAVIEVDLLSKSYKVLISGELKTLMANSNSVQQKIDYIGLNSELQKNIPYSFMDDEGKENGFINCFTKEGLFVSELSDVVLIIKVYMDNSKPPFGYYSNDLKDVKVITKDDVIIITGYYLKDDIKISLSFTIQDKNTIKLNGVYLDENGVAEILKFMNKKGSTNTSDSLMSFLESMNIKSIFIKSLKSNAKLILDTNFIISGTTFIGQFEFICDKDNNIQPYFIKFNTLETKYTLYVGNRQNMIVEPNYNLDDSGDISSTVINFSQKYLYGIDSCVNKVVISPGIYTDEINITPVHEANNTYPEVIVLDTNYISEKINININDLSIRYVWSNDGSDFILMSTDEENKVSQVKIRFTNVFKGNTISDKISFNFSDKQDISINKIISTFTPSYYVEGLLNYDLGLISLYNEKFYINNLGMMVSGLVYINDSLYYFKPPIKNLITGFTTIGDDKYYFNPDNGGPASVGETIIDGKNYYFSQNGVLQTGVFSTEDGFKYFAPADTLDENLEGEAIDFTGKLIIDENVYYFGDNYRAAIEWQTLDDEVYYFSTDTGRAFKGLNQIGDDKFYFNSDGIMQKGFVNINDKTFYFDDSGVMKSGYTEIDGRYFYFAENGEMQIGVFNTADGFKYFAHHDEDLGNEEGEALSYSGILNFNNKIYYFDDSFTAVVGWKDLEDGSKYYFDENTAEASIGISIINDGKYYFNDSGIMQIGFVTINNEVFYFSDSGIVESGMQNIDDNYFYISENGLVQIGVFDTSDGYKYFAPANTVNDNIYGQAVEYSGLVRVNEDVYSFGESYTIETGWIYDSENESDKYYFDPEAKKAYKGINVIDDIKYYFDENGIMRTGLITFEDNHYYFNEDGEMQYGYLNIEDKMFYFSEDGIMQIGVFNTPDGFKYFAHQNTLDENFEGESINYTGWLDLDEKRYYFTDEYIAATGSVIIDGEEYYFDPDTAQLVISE
ACE2: Angiotensin-converting enzyme 2 (ACE2, Homo sapiens, UniProt Q9BYF1)
Polyprotein P1234 nsP2 protease domain: Polyprotein P1234, nsP2 protease domain (Chikungunya virus, UniProt Q5XXP4)
Chain of UniProt Q5XXP4 (whole entry, looked up): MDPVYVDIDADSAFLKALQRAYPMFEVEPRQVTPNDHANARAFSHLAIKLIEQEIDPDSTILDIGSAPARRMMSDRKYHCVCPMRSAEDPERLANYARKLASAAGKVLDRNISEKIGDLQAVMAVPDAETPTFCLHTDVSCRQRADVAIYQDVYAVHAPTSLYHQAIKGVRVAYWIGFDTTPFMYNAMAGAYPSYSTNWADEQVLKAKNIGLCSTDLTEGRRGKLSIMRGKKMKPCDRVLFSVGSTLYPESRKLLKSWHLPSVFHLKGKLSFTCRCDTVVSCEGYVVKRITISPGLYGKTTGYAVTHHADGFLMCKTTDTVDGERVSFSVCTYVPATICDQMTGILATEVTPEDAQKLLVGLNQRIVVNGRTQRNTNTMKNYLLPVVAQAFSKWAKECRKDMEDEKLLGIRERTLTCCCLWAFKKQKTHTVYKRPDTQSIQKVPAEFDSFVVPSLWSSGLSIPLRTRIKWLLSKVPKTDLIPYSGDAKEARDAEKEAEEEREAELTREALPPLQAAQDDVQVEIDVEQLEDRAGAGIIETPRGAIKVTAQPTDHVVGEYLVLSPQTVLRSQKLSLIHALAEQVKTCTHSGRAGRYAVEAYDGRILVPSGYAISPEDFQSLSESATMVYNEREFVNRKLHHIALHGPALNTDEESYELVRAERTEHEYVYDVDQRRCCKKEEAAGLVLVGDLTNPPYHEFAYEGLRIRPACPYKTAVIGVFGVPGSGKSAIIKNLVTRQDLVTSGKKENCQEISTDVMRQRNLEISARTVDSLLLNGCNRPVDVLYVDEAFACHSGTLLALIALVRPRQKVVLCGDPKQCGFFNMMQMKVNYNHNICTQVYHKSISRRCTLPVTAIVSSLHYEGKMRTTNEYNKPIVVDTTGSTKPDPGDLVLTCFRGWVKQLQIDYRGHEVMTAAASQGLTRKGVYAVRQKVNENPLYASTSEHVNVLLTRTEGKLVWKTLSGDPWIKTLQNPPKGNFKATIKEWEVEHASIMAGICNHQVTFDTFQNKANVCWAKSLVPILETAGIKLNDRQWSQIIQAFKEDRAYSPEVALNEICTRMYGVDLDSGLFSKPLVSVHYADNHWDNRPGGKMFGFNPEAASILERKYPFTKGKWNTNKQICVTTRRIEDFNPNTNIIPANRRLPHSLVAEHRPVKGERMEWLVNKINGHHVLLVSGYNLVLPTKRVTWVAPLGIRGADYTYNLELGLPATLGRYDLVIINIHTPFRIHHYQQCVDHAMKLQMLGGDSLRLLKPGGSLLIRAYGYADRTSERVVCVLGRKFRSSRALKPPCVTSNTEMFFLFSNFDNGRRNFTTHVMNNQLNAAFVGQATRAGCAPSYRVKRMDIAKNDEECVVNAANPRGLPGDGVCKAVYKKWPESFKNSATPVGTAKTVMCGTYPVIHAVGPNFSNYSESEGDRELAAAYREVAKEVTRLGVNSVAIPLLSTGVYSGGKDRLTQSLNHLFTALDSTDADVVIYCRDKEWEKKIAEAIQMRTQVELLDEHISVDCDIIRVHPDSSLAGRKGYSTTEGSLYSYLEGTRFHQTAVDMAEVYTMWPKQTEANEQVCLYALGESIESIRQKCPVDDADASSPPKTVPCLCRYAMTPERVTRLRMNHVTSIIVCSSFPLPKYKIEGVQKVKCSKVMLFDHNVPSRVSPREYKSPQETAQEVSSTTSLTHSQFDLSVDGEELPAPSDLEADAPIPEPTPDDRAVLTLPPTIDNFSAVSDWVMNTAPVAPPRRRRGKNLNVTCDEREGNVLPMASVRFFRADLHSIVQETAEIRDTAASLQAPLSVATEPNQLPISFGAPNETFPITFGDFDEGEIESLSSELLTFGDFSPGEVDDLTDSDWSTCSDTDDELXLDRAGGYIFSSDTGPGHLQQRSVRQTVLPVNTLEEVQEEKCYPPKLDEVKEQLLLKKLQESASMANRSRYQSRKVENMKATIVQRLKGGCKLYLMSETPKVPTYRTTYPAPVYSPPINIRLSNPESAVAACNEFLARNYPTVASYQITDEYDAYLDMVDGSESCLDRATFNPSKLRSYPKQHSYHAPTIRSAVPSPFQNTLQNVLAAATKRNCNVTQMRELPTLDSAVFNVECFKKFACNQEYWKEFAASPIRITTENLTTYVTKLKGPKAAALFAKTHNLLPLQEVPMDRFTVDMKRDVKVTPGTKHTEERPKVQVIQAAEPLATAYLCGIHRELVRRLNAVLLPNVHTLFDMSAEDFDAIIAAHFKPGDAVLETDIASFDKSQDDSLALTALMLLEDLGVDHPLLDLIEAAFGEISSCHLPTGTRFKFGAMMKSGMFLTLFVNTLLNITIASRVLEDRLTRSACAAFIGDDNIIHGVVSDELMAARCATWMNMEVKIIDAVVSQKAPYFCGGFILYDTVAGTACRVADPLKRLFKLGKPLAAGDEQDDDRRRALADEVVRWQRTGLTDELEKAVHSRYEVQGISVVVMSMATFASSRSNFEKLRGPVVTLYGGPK

With `CC[C@H](C)[C@H](NC(=O)[C@H](CC(C)C)NC(=O)[C@H](Cc1c[nH]c2ccccc12)NC(=O)[C@H](CCC(N)=O)NC(=O)[C@@H](NC(=O)[C@H](Cc1ccccc1)NC(=O)[C@H](C)NC(=O)[C@H](CCCCNC(=O)COCCOCCNC(=O)COCCOCCNC(=O)CC[C@H](NC(=O)CCCCCCCCCCCCCCCCCCC(=O)O)C(=O)O)NC(=O)[C@H](CCC(N)=O)NC(=O)[C@H](C)NC(=O)[C@@H](NC(=O)[C@H](CCCCN)NC(=O)[C@H](CC(=O)O)NC(=O)[C@H](CC(C)C)NC(=O)C(C)(C)NC(=O)[C@@H](NC(=O)[C@H](CO)NC(=O)[C@H](Cc1ccc(O)cc1)NC(=O)[C@H](CC(=O)O)NC(=O)[C@H](CO)NC(=O)[C@@H](NC(=O)[C@H](Cc1ccccc1)NC(=O)[C@@H](NC(=O)CNC(=O)[C@H](CCC(=O)O)NC(=O)C(C)(C)NC(=O)[C@@H](N)Cc1ccc(O)cc1)[C@@H](C)O)[C@@H](C)O)[C@@H](C)CC)[C@@H](C)CC)C(C)C)C(=O)N[C@@H](C)C(=O)NCC(=O)NCC(=O)N1CCC[C@H]1C(=O)N[C@@H](CO)C(=O)N[C@@H](CO)C(=O)NCC(=O)N[C@@H](C)C(=O)N1CCC[C@H]1C(=O)N1CCC[C@H]1C(=O)N1CCC[C@H]1C(=O)N[C@@H](CO)C(N)=O` the Cmax was 2200 ng/mL (human, plasma; subcutaneous, 10.0 mg once weekly, week 15, multiple doses).
For `CC(C)C[C@H](NC(=O)[C@@H](NC(=O)[C@@H](N)Cc1c[nH]cn1)[C@@H](C)O)C(=O)N[C@@H](CCC(=O)O)C(=O)N[C@@H](Cc1c[nH]c2ccccc12)C(=O)N[C@@H](CCCNC(=N)N)C(=O)N[C@@H](CCCNC(=N)N)C(=O)N[C@@H](Cc1c[nH]c2ccccc12)C(=O)O`, the Ki was 188 µM (Toxin B, glucosyltransferase domain (Clostridioides difficile, UniProt A0A9R0CDJ3); glucosyltransferase activity, inhibitor, UDP-Glo glucosyltransferase luminescence; together with: Rac1 and UDP-glucose).
With `CCC(C(=O)Nc1cc(NC2CCOC2)ccc1C)n1cc(Cl)cc2nc(SCc3ccc(F)cc3)nc1-2` (stereo not shown) the IC50 was greater than 100 µM (Replicase polyprotein 1ab, papain-like protease (rep, Middle East respiratory syndrome-related coronavirus, UniProt K9N7C7); enzyme activity, inhibitor).
For `Cn1cnc(Cn2c(=O)[nH]/c(=N\c3cc4cn(C)nc4cc3Cl)n(Cc3cc(F)c(F)cc3F)c2=O)n1`, the IC50 was greater than 100 µM (Cytochrome P450 2C19 (CYP2C19, Homo sapiens, UniProt P33261); inhibitor; human liver microsomes; 0 min preincubation, together with: S-mephenytoin 60 µM).
The IC50 of `CCC(C(=O)Nc1ccccc1C)n1cccc2nc(SCc3ccc(OC)cc3)nc1-2` (stereo not shown) is reported as 2.5 ± 0.17 µM (Replicase polyprotein 1ab, papain-like protease (rep, Severe acute respiratory syndrome-related coronavirus, UniProt P0C6X7); enzyme activity).
`bavachinin` gave a Kd of 11.8 µM (Spike glycoprotein; binding).
The IC50 of `CCC(C(=O)Nc1ccccc1C)n1cccc2nc(SCc3cccc(F)c3)nc1-2` (stereo not shown) is reported as greater than 100 µM (Replicase polyprotein 1ab, papain-like protease (rep, Middle East respiratory syndrome-related coronavirus, UniProt K9N7C7); enzyme activity, inhibitor).
For `CCc1c(C(=O)C(N)=O)c2c(OCC(=O)O)cccc2n1Cc1ccccc1`, the viability difference was 7.17% (C2C12; 1 µM, together with: KL venom; baseline: venom alone).
The Kd of `CC[C@H](C)[C@H](NC(=O)[C@H](CC(C)C)NC(=O)[C@H](CO)NC(=O)[C@H](Cc1c[nH]cn1)NC(=O)[C@@H](NC(=O)[C@H](CC(C)C)NC(=O)[C@H](CO)NC(=O)[C@@H](NC(=O)[C@H](Cc1ccc(O)cc1)NC(=O)[C@H](CC(N)=O)NC(=O)[C@H](CC(N)=O)NC(=O)[C@@H](NC(=O)[C@H](CCC(=O)O)NC(=O)[C@H](CCCNC(=N)N)NC(=O)[C@H](CC(=O)O)NC(=O)[C@H](Cc1c[nH]c2ccccc12)NC(=O)[C@H](CCC(=O)O)NC(=O)[C@H](CCSC)NC(=O)[C@H](Cc1c[nH]c2ccccc12)NC(C)=O)[C@@H](C)CC)[C@@H](C)O)[C@@H](C)CC)C(=O)N[C@@H](CCC(=O)O)C(=O)N[C@@H](CCC(=O)O)C(=O)N[C@@H](CO)C(=O)N[C@@H](CCC(N)=O)C(=O)N[C@@H](CC(N)=O)C(=O)N[C@@H](CCC(N)=O)C(=O)N[C@@H](CCC(N)=O)C(=O)N[C@@H](CCC(=O)O)C(=O)N[C@@H](CCCCN)C(=O)N[C@@H](CC(N)=O)C(=O)N[C@@H](CCC(=O)O)C(=O)N[C@@H](CCC(N)=O)C(=O)N[C@@H](CCC(=O)O)C(=O)N[C@@H](CC(C)C)C(=O)N[C@@H](CC(C)C)C(=O)NCC(=O)N[C@@H](CO)C(=O)NCC(=O)N[C@@H](CSCC(=O)O[C@H]1CC[C@@]2(C)C(=CC[C@H]3[C@@H]4CC[C@H]([C@H](C)CCCC(C)(C)O)[C@@]4(C)CC[C@@H]32)C1)C(N)=O` is reported as 0.101 ± 0.0082 µM (monolayer insertion, Langmuir surface pressure; POPC monolayer; 25 °C, initial pressure 20.5 mN/m).
`abamectin` gave a Kd of 24.1 µM (Spike glycoprotein; biolayer interferometry).
Under “treatment-related TEAE, Mild severity”, `Cn1cnc(Cn2c(=O)[nH]/c(=N\c3cc4cn(C)nc4cc3Cl)n(Cc3cc(F)c(F)cc3F)c2=O)n1` is recorded as 12.5% (human, mild renal impairment; oral, 375 mg).
The Ki of `CSCC[C@H](N)C(=O)N[C@@H](CC(=O)O)C(=O)N[C@H](C(=O)N[C@@H](CCC(N)=O)C(=O)N[C@@H](Cc1c[nH]c2ccccc12)C(=O)N[C@@H](CCCNC(=N)N)C(=O)N[C@@H](CCCNC(=N)N)C(=O)N[C@@H](Cc1c[nH]c2ccccc12)C(=O)O)[C@@H](C)O` is reported as 2700 µM (tcdB glucosyltransferase domain).
`Cc1cc(O[C@@H]2O[C@H](CO)[C@@H](O)[C@H](O)[C@H]2O)c2c(c1)C(=O)c1cc(O)cc(O)c1C2=O` has a Kd of 37.9 µM (Spike glycoprotein; binding, biolayer interferometry).
`CNC(=O)[C@@H](NC(=O)[C@H](CC(C)C)[C@H](O)C(=O)NO)C(C)(C)C`: “remaining fibrinogen Bβ chain” 0.419 (human fibrinogen; SDS-PAGE; Daboia russelii; concentration not given, unit not given, together with: TN venom; baseline: untreated fibrinogen).
Under “injury, poisoning, procedural complications incidence”, `COc1ccc([C@@H](O)c2cc(-c3ncnc4cc(N5CCOCC5)ccc34)c(F)cc2Cl)nn1` is recorded as 4% (patients, advanced solid tumours; oral, 250 mg once daily, 10 dosing days, treatment-emergent, together with: avelumab, radiotherapy).
For `CCC(C(=O)Nc1cc(NC2CCOCC2)ccc1C)n1cccc2nc(SCc3ccc(F)cc3)nc1-2` (stereo not shown), the IC50 was greater than 100 µM (Replicase polyprotein 1ab, papain-like protease (rep, Middle East respiratory syndrome-related coronavirus, UniProt K9N7C7); enzyme activity, inhibitor).
`CSCC[C@H](NC(=O)[C@@H](N)CCC(=O)O)C(=O)N[C@@H](Cc1c[nH]cn1)C(=O)N[C@@H](CCC(N)=O)C(=O)N[C@@H](Cc1c[nH]c2ccccc12)C(=O)N[C@@H](CCCNC(=N)N)C(=O)N[C@@H](CCCNC(=N)N)C(=O)N[C@@H](Cc1c[nH]c2ccccc12)C(=O)O` gave a Ki of 2410 µM (tcdB glucosyltransferase domain).
The Kd of `CC(C)=CCc1cc2c(cc1O)O[C@H](c1ccc(O)cc1)CC2=O` is reported as 43.8 µM (Spike glycoprotein; binding, biolayer interferometry).
The AC50 of `Cc1cc(C2CCCCC2)n(O)c(=O)c1` is reported as 2.67 µM (ACE2; spike protein binding; together with: SARS-CoV-2 spike protein).
With `Cn1cc(-c2ncc(C(=O)NCC=CS(C)(=O)=O)s2)cn1` the Ki was 15 ± 1 µM (Polyprotein P1234 nsP2 protease domain; time-dependent inhibitor).
For `CC(=O)O[C@@H]1[C@H](N)[C@@H](OP(=O)(O)O)[C@@]2(C(=O)O)CS[C@@](O)(C(N)=O)[C@@H]1O2`, the Kd was 1.1 ± 0.7 µM (DNA-directed RNA polymerase subunit beta' / DNA-directed RNA polymerase subunit beta (rpoC/rpoB, Escherichia coli, UniProt P0A8T7+P0A8V2); binding to elongation complex, 6-MI fluorescence titration; wild-type RNAP; 3′-deoxy RNA 3′-end Cytosine).
With `CCC(C(=O)Nc1ccccc1C)n1cccc2nc(S)nc1-2` (stereo not shown) the IC50 was greater than 100 µM (Replicase polyprotein 1ab, papain-like protease (rep, Middle East respiratory syndrome-related coronavirus, UniProt K9N7C7); enzyme activity, inhibitor).
`C[C@H](CCC(=O)O)[C@H]1CC[C@H]2[C@@H]3CC[C@@H]4C[C@H](O)CC[C@]4(C)[C@H]3C[C@H](O)[C@]12C` has an AC50 of 18.9 µM (ACE2; spike protein binding; together with: SARS-CoV-2 spike protein).
With `Nc1ncnc2c([C@@H]3N[C@H](CO)[C@@H](O)[C@H]3O)c[nH]c12` the inhibition was 24% (Zaire ebolavirus; viral replication, inhibitor; human Macrophage; 25 µM).
With `OC[C@H]1O[C@@H](Oc2c(O)cc(O)cc2/C=C/c2ccc(O)cc2)[C@H](O)[C@@H](O)[C@@H]1O` the Kd was 66.2 µM (Spike glycoprotein; biolayer interferometry).
`CCC(C(=O)Nc1cc(NC2COC2)ccc1C)n1cccc2nc(SCc3ccc(F)cc3)nc1-2` (stereo not shown) has an IC50 of greater than 100 µM (Replicase polyprotein 1ab, papain-like protease (rep, Middle East respiratory syndrome-related coronavirus, UniProt K9N7C7); enzyme activity, inhibitor).
`O=c1cc(-c2ccccc2)c2ccc(O)c(O)c2o1` has a Kd of 61.1 µM (Spike glycoprotein; binding, biolayer interferometry).
`CC(C)(C)[C@H](NC(=O)C(F)(F)F)C(=O)N1C[C@H]2[C@@H]([C@H]1C(=O)N[C@H](C#N)C[C@@H]1CCNC1=O)C2(C)C` — result for “participants discontinued due to adverse events”: 1% (human, fasted; oral, 500 mg single dose, 28 days, no ritonavir).
Under “treatment-boosted ADA positive subjects”, `CC[C@H](C)[C@H](NC(=O)[C@H](CC(C)C)NC(=O)[C@H](Cc1c[nH]c2ccccc12)NC(=O)[C@H](CCC(N)=O)NC(=O)[C@@H](NC(=O)[C@H](Cc1ccccc1)NC(=O)[C@H](C)NC(=O)[C@H](CCCCNC(=O)COCCOCCNC(=O)COCCOCCNC(=O)CC[C@H](NC(=O)CCCCCCCCCCCCCCCCCCC(=O)O)C(=O)O)NC(=O)[C@H](CCC(N)=O)NC(=O)[C@H](C)NC(=O)[C@@H](NC(=O)[C@H](CCCCN)NC(=O)[C@H](CC(=O)O)NC(=O)[C@H](CC(C)C)NC(=O)C(C)(C)NC(=O)[C@@H](NC(=O)[C@H](CO)NC(=O)[C@H](Cc1ccc(O)cc1)NC(=O)[C@H](CC(=O)O)NC(=O)[C@H](CO)NC(=O)[C@@H](NC(=O)[C@H](Cc1ccccc1)NC(=O)[C@@H](NC(=O)CNC(=O)[C@H](CCC(=O)O)NC(=O)C(C)(C)NC(=O)[C@@H](N)Cc1ccc(O)cc1)[C@@H](C)O)[C@@H](C)O)[C@@H](C)CC)[C@@H](C)CC)C(C)C)C(=O)N[C@@H](C)C(=O)NCC(=O)NCC(=O)N1CCC[C@H]1C(=O)N[C@@H](CO)C(=O)N[C@@H](CO)C(=O)NCC(=O)N[C@@H](C)C(=O)N1CCC[C@H]1C(=O)N1CCC[C@H]1C(=O)N1CCC[C@H]1C(=O)N[C@@H](CO)C(N)=O` is recorded as 0% (healthy subjects, single ascending dose; 8.0 mg, titre increase ≥4-fold).
The Ki of `CS(=O)(=O)C=CCNC(=O)c1ccc2c(c1)NC(=O)CC2` is reported as 15 ± 2 µM (Polyprotein P1234 nsP2 protease domain; time-dependent inhibitor).
For `CO[C@H]1[C@@H](O)[C@H](O[C@@H]2[C@@H](C)O[C@@H](O[C@H]3CC[C@@]4(C)[C@@H](CC[C@@]56O[C@@]57CC[C@@H](C(C)=O)[C@@]7(C)[C@H](OC(C)=O)[C@@H](OC(=O)c5ccccc5)[C@H]46)C3)C[C@H]2OC)O[C@H](C)[C@H]1O`, the Kd was 182 µM (Spike glycoprotein; binding, biolayer interferometry).

For quick reference, copied from above:
For `Cn1cnc(Cn2c(=O)[nH]/c(=N\c3cc4cn(C)nc4cc3Cl)n(Cc3cc(F)c(F)cc3F)c2=O)n1`, the IC50 was greater than 100 µM (Cytochrome P450 2C19 (CYP2C19, Homo sapiens, UniProt P33261); inhibitor; human liver microsomes; 0 min preincubation, together with: S-mephenytoin 60 µM).
`bavachinin` gave a Kd of 11.8 µM (Spike glycoprotein; binding).
The Kd of `CC(C)=CCc1cc2c(cc1O)O[C@H](c1ccc(O)cc1)CC2=O` is reported as 43.8 µM (Spike glycoprotein; binding, biolayer interferometry).
`CC(C)(C)[C@H](NC(=O)C(F)(F)F)C(=O)N1C[C@H]2[C@@H]([C@H]1C(=O)N[C@H](C#N)C[C@@H]1CCNC1=O)C2(C)C` — result for “participants discontinued due to adverse events”: 1% (human, fasted; oral, 500 mg single dose, 28 days, no ritonavir).
